Measured values from different studies.
Numbered parts are unrelated; each lists some results of a single study. Substitutions count along the parent as printed.
Sequence of UniProt P41145 (whole entry, looked up): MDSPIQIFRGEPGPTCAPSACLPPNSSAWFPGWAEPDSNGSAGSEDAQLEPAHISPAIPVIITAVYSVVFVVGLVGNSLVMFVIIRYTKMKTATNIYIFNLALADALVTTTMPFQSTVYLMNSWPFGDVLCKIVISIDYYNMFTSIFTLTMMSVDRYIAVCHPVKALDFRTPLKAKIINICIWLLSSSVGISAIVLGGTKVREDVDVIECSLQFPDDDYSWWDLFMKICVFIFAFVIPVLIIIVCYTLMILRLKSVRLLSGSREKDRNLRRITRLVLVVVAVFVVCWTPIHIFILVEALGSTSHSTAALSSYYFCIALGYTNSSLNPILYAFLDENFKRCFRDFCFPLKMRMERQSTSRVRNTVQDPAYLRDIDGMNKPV

Set 1
Target: CCND3, cyclin fold, Cln2 fusion (human)
Method: yeast growth competition, sequencing
Sample: yeast
Notes: weak parent motif
Baseline: not given
Direction: higher = stronger binding
Starting sequence: viral docking peptide; TSVRRALFTGGSD
| Substitution | normalised enrichment score |
| --- | --- |
| L7V | 0.326 |
| S2H | 0.158 |
| G10P | -0.128 |
| G10M | -0.123 |
| R4K | -0.121 |
| R5G | 0.0804 |
| A6S | 0.31 |
| T9A | 0.116 |
| A6K | 0.116 |
| G11C | 0.408 |
| R5Q | 0.037 |
| S12P | 0.0552 |
| G10Q | 0.279 |
| G11L | 0.0854 |
| G11N | -0.331 |
| G11D | -0.0338 |
| G10D | -0.213 |
| R4T | 0.0619 |
| G11F | 0.312 |
| T9F | 0.625 |
| S12L | 0.0351 |
| V3Q | -0.178 |
| G10C | -0.111 |
| F8N | 0.23 |
| G11S | 0.0755 |

Set 2
Target: POU, POU domain (Salpingoeca helianthica)
Method: Spec-seq
Molecule type: double-stranded DNA, one strand shown
Sample: in vitro
Tested at: not given
Notes: whole probe, mean of replicates
Baseline: not given
Direction: lower = stronger binding
All sequences stand within: GAGTCGTCTCGTCAGCAC … CCGTAGAGCACTCAGGTC
Residues (chain): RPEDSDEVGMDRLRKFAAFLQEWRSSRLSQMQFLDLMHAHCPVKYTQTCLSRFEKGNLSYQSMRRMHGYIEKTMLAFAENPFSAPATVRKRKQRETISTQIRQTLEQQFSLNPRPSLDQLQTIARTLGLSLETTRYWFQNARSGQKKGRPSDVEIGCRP
| Strand | relative binding energy |
| --- | --- |
| ATCCGAAT | 1.4 ln ratio |
| TCAATAAT | -0.12 ln ratio |
| ATCCTCAT | 1.38 ln ratio |
| CTGTTAAT | -0.457 ln ratio |
| ATGCCTGT | 1.14 ln ratio |
| ATGCCTAA | 0.784 ln ratio |
| ATAGAAAT | 1.2 ln ratio |
| ATGCAAGC | 1.36 ln ratio |

Set 3
Target: PABPC1L2, full length, GST fusion (mouse, UniProt A0ABA7IW68)
Method: RNAcompete
Molecule type: RNA
Sample: in vitro
Tested at: 20 nM
Notes: 7-mer, probes averaged, single round
Baseline: mean of 7-mers
Direction: higher = stronger binding
Target sequence (chain): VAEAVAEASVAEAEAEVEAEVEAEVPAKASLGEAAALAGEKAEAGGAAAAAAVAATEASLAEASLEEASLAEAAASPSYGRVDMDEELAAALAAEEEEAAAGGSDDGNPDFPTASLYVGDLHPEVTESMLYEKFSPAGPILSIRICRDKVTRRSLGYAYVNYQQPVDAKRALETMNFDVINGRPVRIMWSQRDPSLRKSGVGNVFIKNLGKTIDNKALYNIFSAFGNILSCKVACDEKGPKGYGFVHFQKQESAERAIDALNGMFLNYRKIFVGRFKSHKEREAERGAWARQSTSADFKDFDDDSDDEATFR
| Strand | 7-mer Z-score |
| --- | --- |
| CCUCGGU | -0.336 |
| CCCUAUG | -0.441 |
| CAUUAGA | 0.0696 |
| AUAUUUG | -0.302 |
| GUCACCA | -0.0971 |
| UACUUCU | -0.347 |
| GGUUAGA | 0.102 |
| UAUAUCA | -0.0228 |

Set 4
Target: Histone acetyltransferase KAT6A, winged helix 2, GST fusion (KAT6A, Homo sapiens, UniProt Q92794, residues 85-181)
Method: protein binding microarray
Molecule type: double-stranded DNA, one strand shown
Sample: in vitro
Tested at: not given
Notes: 8-mer, flanks averaged, mean of 2 arrays, mostly near background
Baseline: not given
Direction: higher = stronger binding
Construct (chain): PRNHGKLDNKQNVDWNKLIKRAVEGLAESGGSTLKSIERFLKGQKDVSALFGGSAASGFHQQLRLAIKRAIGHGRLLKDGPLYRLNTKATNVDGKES
| Strand | E-score |
| --- | --- |
| AAGCAGAC | 0.0279 |
| CGACTACA | -0.0803 |
| TTAGTGAA | 0.00464 |
| ACAATCTC | -0.177 |
| CAATGAGA | -0.17 |
| ACGCGAAG | -0.0541 |
| AGGCTCTA | -0.069 |
| CGCTTACC | 0.0391 |

Other studies, line by line
| Structure (SMILES) | target | effect on | tested at | endpoint | result |
| --- | --- | --- | --- | --- | --- |
| O=C(NNS(=O)(=O)c1ccccc1F)c1cc(F)cc(-c2ccccn2)c1 | Kappa-type opioid receptor (OPRK1, Homo sapiens, UniProt P41145) | cell-free assay | 10 µM | inhibition | 5.23% |

Excerpt of the above (set 1):
| Substitution | normalised enrichment score |
| --- | --- |
| S12L | 0.0351 |
| V3Q | -0.178 |
| G10C | -0.111 |
